Measured values from different studies.
Numbered parts are unrelated; each lists some results of a single study. Changes are numbered by the printed parent chain.

Series 1 — method: RNA Bind-n-Seq; form: RNA; matrix: in vitro; tested at: 365 nM; baseline: no-protein control; reading: higher = stronger binding; measurement: RBNS enrichment (R)
Target: RNA binding protein fox-1 homolog 2, RRM domain, GST-SBP tag (RBFOX2, Homo sapiens, UniProt O43251-10, residues 100-194)
Notes: natural RNA segment, single round, ends assumed
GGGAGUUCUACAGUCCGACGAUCGCCUGUUAGAAAUUAAAAAAUACAGUACAGCUUGCCGUUCCUCUGGUUUGUGAAGUUUCACUCGUUGCCUAAAAUGCCCGAUGCCUCGUCUCCAGACCUUGCUGCCCUUGUGGAAUUCUCGGGUGCCAA: 0.502
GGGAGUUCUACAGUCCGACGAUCGGUGAGGAGGAGCACCUGGGCUCUCUACCCCUCUCCUCACAGAAGUACCUGAAACUAGGUCUGGGGCACUCCCAAUGCAGCGCCUUGUCAGCCAAGGUGGGCAGGCAGGGUGGAAUUCUCGGGUGCCAA: 0.745
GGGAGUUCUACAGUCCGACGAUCUGGAUUGCAAGCUUUAGAACGAAUCAAGCAUUUUCCCUAGCCAGGCAAGGCAUUCGUUUCCUUACUUUGGAAUAGUAUUUAUGUUGAAUUGUAAACCCACAGUUGUAAGCUGGAAUUCUCGGGUGCCAA: 0.516
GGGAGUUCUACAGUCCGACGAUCAUAGAAAUGUAUAUUUUAUUAUGCAAUGCCUUAGUCAUAAACUGGGCUCAAACAAUUCUCAGCCUAAAACACUGUUGUCUUUUAAAAUGCUUCCAACCCAAAGGCCUUUCUGGAAUUCUCGGGUGCCAA: 0.414
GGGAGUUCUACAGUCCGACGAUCAUGUGUAGACAUUAGUGAAAAUUAACAAUGCACGUUAUUUGCAAAUGUCAGCAAUUAUCUGUACAUGGUAAGAACGAAAAAUACCUUCAUUGAAAUAAAGCUACAGCACAUGGAAUUCUCGGGUGCCAA: 2.17
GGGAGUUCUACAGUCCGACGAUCUUGUCUUGGGAAACGUAGUCUAGAAAAAGCCACGUAGAGAAUAACGUGAUGUUCUAGAGUUGUAUGUGUCUGGGUUCUUCCUAUGAGAUCUAAGGGGACGUUAUAAGUGAUGGAAUUCUCGGGUGCCAA: 4.63
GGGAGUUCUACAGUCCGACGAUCAGAUAUUUAUAUCAAUUCCUACAGCUUUCCCCUGCCAUCCCUGAACUCUUUCUAGCCCUUUUAGAUUUUGGCACUGUGAAACCCCUGCUGGAAACCUGAGUGACCCUCCCUGGAAUUCUCGGGUGCCAA: 0.425
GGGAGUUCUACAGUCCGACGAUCGUGUGACUAAUACAUGUUCUACGAGUUAACUACUUUGGCAGUUUUAAUCAUUUCUUCUUUGUUUUGUGGUAAAGGGGAAAAAUUAAAAACCAGUUGGAACCCUUUUGUCUUGGAAUUCUCGGGUGCCAA: 0.385
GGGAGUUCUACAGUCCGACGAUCCAGUGGUGUGAGUAACUGAGUCAAAUUGUCAAGUACUUUGGAUAUACAUAGUGUCGAGCUUUAGAUUGGUAUGAAAUUAAACAGCAAUGCAAAUAGAUUUAAUUCCUAUUUGGAAUUCUCGGGUGCCAA: 1.42
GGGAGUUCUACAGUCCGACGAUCGCUGGGACCUGCCUGGGCCUGGACCUGGGCCCGAGCAGCUGGGGACUUCACUGUCCAUGGGUCCUAGACAGGCCUGCAGGCAGGCAGGGUGCACACGCCUUCCUUCCCUCUGGAAUUCUCGGGUGCCAA: 0.685
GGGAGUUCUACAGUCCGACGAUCAGCAUUCUGGCAGCUUCCAAGUCAGCCAGCUGCCCUAAAUAACCCUUCAACAUUUCUUCACUUUUGCAAGGUUCCACAGACUAAGACAUUGGGUCUAUUCCAGCUCAUUCUGGAAUUCUCGGGUGCCAA: 1.12
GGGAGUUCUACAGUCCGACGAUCAGUCUUGGAUACUGUCAAGCAAACACCAGAGGCUUGGCCAAGUAUAGUUACAAUUACCUAGUUGGGGUUCUUCCUGAUGCAAGAAAUUUUUCACUGUUCGAGGCACAUGGUGGAAUUCUCGGGUGCCAA: 0.393

Series 2 — method: DHFR PCA, deep sequencing; matrix: yeast; together with: (+)-ABA 17 µM; baseline: wild-type fitted maximum; reading: higher = stronger binding; measurement: relative binding score
Target: ABI1, truncated, D143A, DHFR fusion (Arabidopsis thaliana)
Notes: methotrexate growth selection, single substitutions
Starting sequence: PYL1, truncated, DHFR fusion (Arabidopsis thaliana); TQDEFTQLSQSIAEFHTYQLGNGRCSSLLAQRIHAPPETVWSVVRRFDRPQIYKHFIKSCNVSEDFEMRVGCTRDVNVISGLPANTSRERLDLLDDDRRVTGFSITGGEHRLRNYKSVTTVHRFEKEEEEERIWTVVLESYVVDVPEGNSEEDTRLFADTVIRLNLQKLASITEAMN
V43Y: 62.9%
G23V: 31.2%
N165K: 5.16%
A175P: 61.2%
V137D: 0.302%
H110Q: 14.4%
V70E: 67.6%
T86S: 83.9%
R74C: -18.1%
P37V: 74.4%
K116R: 91.7%
T154M: 52.1%
V161L: 63.3%
V100T: 46.2%
V100F: 16.1%

Series 3 — target: CCND1, cyclin fold, Cln2 fusion (human); method: yeast growth competition, sequencing; matrix: yeast; notes: strong parent motif; baseline: not given; reading: higher = stronger binding; measurement: normalised enrichment score
Starting sequence: RBL1 docking peptide (human); GSAKRRLFGEDPP
GSAKRRLFGETPP [D11T]: 1.6
GSAKDRLFGEDPP [R5D]: 1.04
GSAKFRLFGEDPP [R5F]: 0.692
GSAKRALFGEDPP [R6A]: 0.904
GSWKRRLFGEDPP [A3W]: 0.602
GSAKRRLFGEDPS [P13S]: 1.38
GNAKRRLFGEDPP [S2N]: 1.75
GSAKRRLFGPDPP [E10P]: 1.4
GSAKRRLKGEDPP [F8K]: 0.379
GSAKRRLDGEDPP [F8D]: 0.911
GSAKRRLFGFDPP [E10F]: 0.825
GSAKRRLFGEDPD [P13D]: 2.7
GSAKRRLFGENPP [D11N]: 1.14
LSAKRRLFGEDPP [G1L]: 2.46
GSAKRRLFMEDPP [G9M]: 2.77
GSAKRRLFGEDWP [P12W]: 1.49
MSAKRRLFGEDPP [G1M]: 1.51
GSAKRRYFGEDPP [L7Y]: 0.324
GSAKVRLFGEDPP [R5V]: 0.879
GSAKRRLFGEDPN [P13N]: 2.02
GSAKRRLFGEDPV [P13V]: 2.48
GSAKRRLHGEDPP [F8H]: 0.247
GSAKRRLFGTDPP [E10T]: 0.883
GSCKRRLFGEDPP [A3C]: 1.37

Series 4 — target: JDP2, bZIP domain (human); method: DHFR protein complementation; matrix: yeast; baseline: wild-type JUN-FOS pair; reading: higher = stronger binding; measurement: binding fitness
Notes: single substitutions, most at no-binding floor
Starting sequence: JUN, bZIP domain (human); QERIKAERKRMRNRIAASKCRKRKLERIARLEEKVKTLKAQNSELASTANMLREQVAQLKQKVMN; partner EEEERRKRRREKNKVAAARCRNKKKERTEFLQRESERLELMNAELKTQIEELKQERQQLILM
Q58S: 0.353 natural log
M51W: 0.218 natural log
L38C: -0.0189 natural log
S43I: 0.258 natural log
Q55T: 0.264 natural log
S43H: 0.293 natural log
T48M: 0.219 natural log
L31H: 0.1 natural log
A40V: 0.273 natural log
I28T: 0.23 natural log
E33G: 0.251 natural log
L45R: -0.0977 natural log
N42L: 0.114 natural log
Q41K: 0.264 natural log
V35I: 0.213 natural log
S47D: 0.331 natural log

Series 5 — method: protein-binding microarray; form: double-stranded DNA, one strand shown; matrix: in vitro; tested at: 2200 nM top; notes: 60-bp whole probe; together with: salmon DNA 0.4 mg/ml; baseline: random background probes; reading: higher = stronger binding; measurement: fitted relative affinity; shared flanks, not repeated: GCCTAGCAC … GTCTTGATTCGCTTGACGCTGCTG
Target: Interferon regulatory factor 7, full length, phosphomimetic (IRF7, Homo sapiens, UniProt Q92985, residues 1-503, S471D/S472D/S475D/S476D/S477D/S483D/S484D/S487D)
Target sequence (chain): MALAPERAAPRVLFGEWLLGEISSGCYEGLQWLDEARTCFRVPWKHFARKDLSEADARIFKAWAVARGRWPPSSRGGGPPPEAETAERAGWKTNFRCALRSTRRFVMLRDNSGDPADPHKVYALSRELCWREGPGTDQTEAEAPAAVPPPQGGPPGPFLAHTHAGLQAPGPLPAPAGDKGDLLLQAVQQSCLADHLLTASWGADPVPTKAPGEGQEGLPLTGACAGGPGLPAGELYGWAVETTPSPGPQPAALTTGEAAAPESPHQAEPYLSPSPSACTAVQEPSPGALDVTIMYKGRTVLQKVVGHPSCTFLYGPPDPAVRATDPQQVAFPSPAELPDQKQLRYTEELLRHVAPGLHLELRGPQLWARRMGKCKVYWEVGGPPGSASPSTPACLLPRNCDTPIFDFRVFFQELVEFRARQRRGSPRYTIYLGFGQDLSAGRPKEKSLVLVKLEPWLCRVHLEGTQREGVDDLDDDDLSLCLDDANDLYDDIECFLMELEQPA
TCACTTCTGTATTCATGACTGTGCTAG: 2.17 z-score
CTATTTTTCCCCTGCACTCAGTGCTAG: 2.17 z-score
TTAGGTATCGGGTATCGGTTGGTGCTA: 0.861 z-score
TTAGGGCTGGGTATCGGTTAGTGCTAG: -0.599 z-score
GACGGACTGGGTATCCGGACGTGCTAG: -0.828 z-score
GACGGTCTTCTTTTCCTGACGTGCTAG: 1.23 z-score
AACGGTCTCCTACTGCTGACGTGCTAG: 0.754 z-score
TTAGGTCTCCTTATCCATTAGTGCTAG: 0.917 z-score
GACGGTATCGGTCTCGGGAGGTGCTAG: -0.202 z-score
GACGGTCTCCTTTTCATGACGTGCTAG: 1.46 z-score
TTCTACTTCTCTTTTGGCTTGTGCTAG: 2.78 z-score
TGAAAATTCTAATTAGAATTGTGCTAG: -0.863 z-score
GACGAAGTGAGTCTCGAGACGTGCTAG: 0.0643 z-score
CTTGCTTCCTAATTCTCTTTGTGCTAG: 2.06 z-score
AGGCTCATACATCTGGGTGGGTGCTAG: -0.335 z-score
TTAGGTATCGGGACTGGGTTTGTGCTA: -0.224 z-score
CACTCTCTGCTTGTGTCTGGGTGCTAG: 1.71 z-score
TCATCTTCCCCTCTCATACTGTGCTAG: 2.47 z-score
GAGGGTTCCCTTTTCCTGACGTGCTAG: 1.61 z-score
TTTTTTGTATTTTTGATAGAGTGCTAG: 1.28 z-score
ATCAGTTTAATATCTAAGATTGTGCTA: 0.0231 z-score
TTAGATATCGCGTATCGATTAGTGCTA: 0.281 z-score
TTAGCTTTCCTTTTCCTTTAGTGCTAG: 7.66 z-score
TTAGGTATCCTACTGCCTTAGTGCTAG: 0.572 z-score

For quick reference, copied from above (series 5):
TTAGGTATCGGGACTGGGTTTGTGCTA: -0.224 z-score
CACTCTCTGCTTGTGTCTGGGTGCTAG: 1.71 z-score
TCATCTTCCCCTCTCATACTGTGCTAG: 2.47 z-score
GAGGGTTCCCTTTTCCTGACGTGCTAG: 1.61 z-score
TTTTTTGTATTTTTGATAGAGTGCTAG: 1.28 z-score
ATCAGTTTAATATCTAAGATTGTGCTA: 0.0231 z-score
TTAGATATCGCGTATCGATTAGTGCTA: 0.281 z-score
TTAGCTTTCCTTTTCCTTTAGTGCTAG: 7.66 z-score
